Assay results pooled from the literature.
Each line is one published result; not all experiments were run side by side.
Organism: Escherichia coli

| SMILES | assay | test system | setting | MIC |
| --- | --- | --- | --- | --- |
| CC[C@H](C)[C@H](NC(=O)[C@H](CCCNC(=N)N)NC(=O)[C@H](CO)NC(=O)[C@H](Cc1ccc(O)cc1)NC(=O)[C@@H](NC(=O)[C@@H](NC(=O)[C@H](C)NC(=O)CNC(=O)[C@H](CCCCN)NC(=O)[C@H](CCCCN)NC(=O)CCNC(=O)CCCCCNC(=O)[C@H](CCCNC(=N)N)NC(=O)CCCCCNC(=O)[C@H](CCCNC(=N)N)NC(=O)[C@H](CCCNC(=N)N)NC(=O)CCCCCNC(=O)[C@H](CCCNC(=N)N)NC(=O)[C@H](CCCNC(=N)N)NC(=O)CCCCCNC(=O)[C@H](CCCNC(=N)N)NC(=O)[C@H](CCCNC(=N)N)NC(=O)CCCCCNC(=O)[C@@H](N)CCCNC(=N)N)C(C)C)[C@@H](C)O)C(=O)N[C@@H](CO)C(=O)NCC(=O)N[C@@H](CCC(N)=O)C(=O)N[C@@H](Cc1ccc(O)cc1)C(=O)N[C@@H](CCCCN)C(=O)O | – | ATCC 25922, Mueller-Hinton broth | added: NH4Cl 6 µM | 6 µM |
| CSCC[C@H](NC=O)C(=O)N[C@@H](CCCNC(=N)N)C(=O)N[C@H](C(=O)NCC(=O)N[C@@H](CC(N)=O)C(=O)N[C@@H](C)C(=O)N[C@@H](CC(N)=O)C(=O)NCC(=O)N1CCN(c2cc3c(cc2F)c(=O)c(C(=O)O)cn3C2CC2)CC1)[C@@H](C)O | multistep resistance selection | K-12 MG1655 | day 7 | 6.24 µM |
| CO[C@@H](C(N)=O)[C@H](NC(=O)c1ccc(NC(=O)[C@@H](N)Cc2ccccc2)cc1)C(=O)Nc1ccc(C(=O)Nc2ccc(C(=O)Nc3ccc(C(=O)O)c(O)c3OC(C)C)c(O)c2OC(C)C)cc1 | – | empty cosmid vector | 16 h, 37 °C | 0.031 µg/mL |
| CC[C@H](C)[C@H](NC(=O)[C@@H](CCCNC(=N)N)NC(=O)[C@H](CCCNC(=N)N)NC(=O)[C@@H]1CCCN1C(=O)[C@@H]1CCCN1C(=O)[C@H](CCCNC(=N)N)NC(=O)[C@@H]1CCCN1C(=O)[C@H](CCCNC(=N)N)NC(=O)[C@@H]1CCCN1C(=O)[C@H](CC(C)C)NC(=O)[C@H](Cc1c[nH]c2ccccc12)NC(=O)[C@@H]1CCCN1C(=O)[C@@H]1CCCN1C(=O)[C@H](CCCCN)NC(=O)[C@H](CC(=O)O)NC(=O)[C@@H](N)C(C)C)C(=O)N[C@@H](Cc1ccc(O)cc1)C(=O)N[C@@H](CC(N)=O)C(=O)N[C@H](CCCNC(=N)N)C(N)=O | broth microdilution | ATCC 25922 | 18 h, 37 °C, 25% MHB2 | 8 µg/mL |
| CC[C@H](C)[C@H](NC(=O)[C@H](CCCCN)NC(=O)[C@@H](NC(=O)[C@@H](NC(=O)[C@H](CC(C)C)NC(=O)[C@H](CCCNC(=N)N)NC(=O)[C@@H](NC(=O)[C@H](CC(C)C)NC(=O)[C@H](CCCNC(=N)N)NC(=O)CNC(=O)[C@H](Cc1ccccc1)NC(=O)[C@@H](N)CCCNC(=N)N)[C@@H](C)CC)[C@@H](C)CC)C(C)C)C(=O)N[C@@H](C)C(=O)N[C@@H](CCCNC(=N)N)C(=O)N[C@@H](CCCNC(=N)N)C(=O)N[C@@H](C)C(=O)N[C@@H](Cc1c[nH]cn1)C(=O)N[C@@H](CCCNC(=N)N)C(=O)N[C@@H](C)C(=O)N[C@@H](CCCNC(=N)N)C(=O)N[C@@H](CO)C(=O)N[C@@H](C)C(=O)N[C@H](C(=O)N[C@@H](CCCCN)C(=O)N[C@@H](C)C(=O)N[C@@H](C)C(=O)N[C@@H](CO)C(=O)N[C@@H](CC(N)=O)C(=O)N[C@H](C(=O)N[C@@H](C)C(=O)N[C@@H](C)C(=O)N[C@@H](CC(C)C)C(=O)N[C@@H](C)C(=O)N[C@@H](Cc1c[nH]cn1)C(=O)NCC(=O)N[C@@H](C)C(=O)O)C(C)C)C(C)C | bacterial growth, broth microdilution | cation-adjusted Mueller Hinton broth | 18 h, 37 °C | ≤ 0.064 µM |
| CC[C@H](C)[C@H](NC(=O)[C@@H](NC(=O)[C@H](CCCCN)NC(=O)[C@H](CCCCN)NC(=O)[C@@H](NC(=O)[C@H](Cc1c[nH]c2ccccc12)NC(=O)[C@H](CCCCN)NC(=O)[C@H](Cc1c[nH]c2ccccc12)NC(=O)[C@H](CC(C)C)NC(=O)[C@H](CCCCN)NC(=O)[C@H](CCCCN)NC(=O)[C@@H](N)C(C)C)[C@@H](C)CC)C(C)C)C(N)=O | – | – | 24 h, 37 °C, Mueller-Hinton broth, FeCl3 4 µM | 16 µM |
| CC(=O)N[C@H](Cc1cccc(F)c1)C(=O)N[C@@H](CCN)C(=O)N[C@H](C(=O)N[C@@H](CCN)C(=O)N[C@H]1CCNC(=O)[C@H]([C@@H](C)O)NC(=O)[C@H](CCN)NC(=O)[C@H](CCN)NC(=O)[C@H](CC(C)C)NC(=O)[C@@H](Cc2ccccc2)NC(=O)[C@H](CCN)NC1=O)[C@@H](C)O | broth microdilution | mcr-1, colistin-resistant | – | 16 to 32 µg/mL |
| C#CCO/N=C(\C(=O)N[C@@H]1C(=O)N(OS(=O)(=O)O)C1(C)C)c1nsc(N)n1 | agar dilution | CDC 1001728, NDM-1 | – | 16 µg/mL |

For quick reference, copied from above:
| SMILES | assay | test system | setting | MIC |
| --- | --- | --- | --- | --- |
| CC[C@H](C)[C@H](NC(=O)[C@H](CCCCN)NC(=O)[C@@H](NC(=O)[C@@H](NC(=O)[C@H](CC(C)C)NC(=O)[C@H](CCCNC(=N)N)NC(=O)[C@@H](NC(=O)[C@H](CC(C)C)NC(=O)[C@H](CCCNC(=N)N)NC(=O)CNC(=O)[C@H](Cc1ccccc1)NC(=O)[C@@H](N)CCCNC(=N)N)[C@@H](C)CC)[C@@H](C)CC)C(C)C)C(=O)N[C@@H](C)C(=O)N[C@@H](CCCNC(=N)N)C(=O)N[C@@H](CCCNC(=N)N)C(=O)N[C@@H](C)C(=O)N[C@@H](Cc1c[nH]cn1)C(=O)N[C@@H](CCCNC(=N)N)C(=O)N[C@@H](C)C(=O)N[C@@H](CCCNC(=N)N)C(=O)N[C@@H](CO)C(=O)N[C@@H](C)C(=O)N[C@H](C(=O)N[C@@H](CCCCN)C(=O)N[C@@H](C)C(=O)N[C@@H](C)C(=O)N[C@@H](CO)C(=O)N[C@@H](CC(N)=O)C(=O)N[C@H](C(=O)N[C@@H](C)C(=O)N[C@@H](C)C(=O)N[C@@H](CC(C)C)C(=O)N[C@@H](C)C(=O)N[C@@H](Cc1c[nH]cn1)C(=O)NCC(=O)N[C@@H](C)C(=O)O)C(C)C)C(C)C | bacterial growth, broth microdilution | cation-adjusted Mueller Hinton broth | 18 h, 37 °C | ≤ 0.064 µM |
